Published values pooled from the literature.
Numbered parts are unrelated; each lists some results of a single study. Changes are numbered by the printed parent chain.
Chain of UniProt Q9C0B0 (30-357, looked up): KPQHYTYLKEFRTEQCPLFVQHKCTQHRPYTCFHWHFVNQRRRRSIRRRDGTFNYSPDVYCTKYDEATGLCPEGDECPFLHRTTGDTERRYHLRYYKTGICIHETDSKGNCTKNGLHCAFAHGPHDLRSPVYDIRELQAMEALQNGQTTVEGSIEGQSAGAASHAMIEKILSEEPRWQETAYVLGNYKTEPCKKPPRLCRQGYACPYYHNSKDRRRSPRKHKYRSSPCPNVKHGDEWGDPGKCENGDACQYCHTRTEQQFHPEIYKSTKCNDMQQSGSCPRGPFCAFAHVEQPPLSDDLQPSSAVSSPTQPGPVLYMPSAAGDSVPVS

Set 1 — technique: protein-binding microarray; molecule type: double-stranded DNA, one strand shown; medium: in vitro; tested at: 2540 nM top; setting: 60-bp whole probe; added: salmon DNA 0.4 mg/ml; baseline: random background probes; direction: higher = stronger binding; constant ends, left off below: GCCTAGCAC … GTCTTGATTCGCTTGACGCTGCTG
Target: Interferon regulatory factor 3, full length, phosphomimetic (IRF3, Homo sapiens, UniProt Q14653, residues 1-427, S386D/S396D/S398D/S402D/T404D/S405D)
Construct (chain): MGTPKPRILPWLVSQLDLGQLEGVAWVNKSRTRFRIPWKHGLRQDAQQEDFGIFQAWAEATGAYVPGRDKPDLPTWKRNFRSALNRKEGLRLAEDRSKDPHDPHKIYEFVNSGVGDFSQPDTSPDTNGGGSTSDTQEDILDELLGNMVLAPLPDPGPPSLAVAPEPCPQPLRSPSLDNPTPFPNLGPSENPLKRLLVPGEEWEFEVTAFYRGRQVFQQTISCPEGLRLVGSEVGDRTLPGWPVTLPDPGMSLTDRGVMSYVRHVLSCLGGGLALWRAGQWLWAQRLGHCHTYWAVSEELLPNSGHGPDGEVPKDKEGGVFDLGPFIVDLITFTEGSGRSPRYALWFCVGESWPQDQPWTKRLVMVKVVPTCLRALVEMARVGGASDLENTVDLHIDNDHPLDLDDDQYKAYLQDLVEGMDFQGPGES
Oligonucleotide | fitted relative affinity
TTAGAACTGAGTTTCGATCAGTGCTAG | 1.39 z-score
TCAGATTACATATATGTTACTGTGCTA | 1.13 z-score
GGCGGTCTCCTTCTCCTGACGTGCTAG | 4.01 z-score
TCAGTTTTCTCATTCGTACTGTGCTAG | 2.37 z-score
GACGGTTGCCTTTTCCTGACGTGCTAG | 5.91 z-score
TTAGGTATCGACACTGGGTTCGTGCTA | 0.132 z-score

Set 2 — technique: DHFR PCA, dose-response; medium: yeast; added: (+)-ABA, dose series; direction: lower = more sensitive
Target: ABI1, truncated, D143A, DHFR fusion (Arabidopsis thaliana, UniProt P49597)
Setting: Hill fit, not affinity, not high confidence
Starting sequence: PYL1, truncated, DHFR fusion (Arabidopsis thaliana, UniProt Q8VZS8); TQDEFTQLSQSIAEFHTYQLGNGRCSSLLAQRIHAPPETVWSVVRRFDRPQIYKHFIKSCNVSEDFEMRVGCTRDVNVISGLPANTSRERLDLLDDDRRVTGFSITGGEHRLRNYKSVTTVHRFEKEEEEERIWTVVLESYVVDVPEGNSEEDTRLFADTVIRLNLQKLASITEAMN
Substitution | ABA EC50 [µM]
D153K | 133
V137E | 750
Q167P | 2.61
S140C | 1670
V78D | 7.8
D159P | 166
T135N | 1820
W41Q | 7.05

Set 3 — target: CCNB1, cyclin fold, Cln2 fusion (human); technique: yeast growth competition, sequencing; medium: yeast; setting: weak parent motif; baseline: not given; direction: higher = stronger binding
Starting sequence: HIRA docking peptide (human); SLSKRKLELEVET
Substitution | normalised enrichment score
L7A | -0.736
K6A | 0.85
K4A | -0.552
E8A | 0.273

Single results of other studies
Substance | target | assay | system | setting | how to read | endpoint | value
PhoQ, residues 284 288 289 292 302 303 SSLVEF | PhoP, residues 12 14 15 18 19 SPWRL (Escherichia coli, UniProt P23836) | Sort-seq, item: YFP reporter | E. coli | PhoQ-PhoP variant library, added: 10 µM Mg2+ | baseline: high Mg2+ state, higher = stronger signaling | fold induction | 1.14
GGGAGUUCUACAGUCCGACGAUCUAAGAAUUGGAAGAAUUGUGCCGGAGGCAGCCGUCAAAAAGCCGAAGCAGUUUGGAAGAGCCGUUACAAAUAUCAAGAGCCAGGUGGCUAAAAGGUGGAGCUACCGGUCAUUGAAGCUCACAACAGAGGAUUGAGCAUCA | RING finger protein unkempt homolog, zinc fingers 1-6, SBP tag (UNK, Homo sapiens, UniProt Q9C0B0, residues 30-357) | RNA Bind-n-Seq | RNA, in vitro | 100 nM, RNA with constant flanks, ends assumed | baseline: input RNA pool, higher = stronger binding | bound/input enrichment | 0.454 ratio

A few entries again (set 2):
Substitution | ABA EC50 [µM]
V78D | 7.8
Q167P | 2.61
V137E | 750
